Assay results gathered from unrelated publications.
Protocols differ between the studies behind these lines.
Matrix: plasma

`O=c1[nH]c(Cc2ccccn2)nc2c1cnn2C1CCOCC1` gave a Cmax of 3.54 nM (male human; oral, 0.5 mg, single dose).
For `CCCCCOc1ccc(-c2ccc(-c3ccc(C(=O)N[C@H]4C[C@@H](O)[C@@H](OCC[N+](C)(C)C)NC(=O)[C@@H]5[C@@H](O)[C@@H](C)CN5C(=O)[C@H]([C@@H](C)O)NC(=O)[C@H]([C@H](O)[C@@H](O)c5ccc(O)cc5)NC(=O)[C@@H]5C[C@@H](O)CN5C(=O)[C@H]([C@@H](C)O)NC4=O)cc3)cc2)cc1`, the Cmax was 108 ng/mL (human; subcutaneous, 10 mg, single dose).
With `CC[C@H](C)[C@H](NC(=O)[C@@H](N)CCCNC(=N)N)C(=O)N[C@H](C(=O)N1CCC[C@H]1C(=O)N[C@@H](C)C(N)=O)C(C)C` the Cmax was 510 ng/mL (human; intravenous, 0.15 mg/kg, single dose, healthy volunteers).
For `O[C@H]1CCCN[C@@H]1CCCn1cnc2c(Cl)c(Cl)ccc21`, the Cmax was 213 ng/mL (human; oral, 600 mg, single dose, healthy volunteers).
For `c1cc([C@H]2CC[C@]3(CC2)OO[C@]2(O3)C3CC4CC(C3)CC2C4)ccc1OCCN1CCOCC1`, the Cmax was 730 ng/mL (human; oral, 800 mg, single dose, fasted).
The Cmax of `COc1cccc(C2(O)CCCCC2CN(C)C)c1` (centres unmarked) is reported as 346 ng/mL (human; oral, 100 mg, single dose, fasted).
`CC[C@@]1(O)C(=O)OCc2c1cc1n(c2=O)Cc2cc3c(CN(C)C)c(O)ccc3nc2-1` gave a Cmax of 6.64 ng/mL (human; oral, 2.5 mg, multiple doses, patients).
`C=C(C)[C@@H]1CC[C@]2(NCCN3CCS(=O)(=O)CC3)CC[C@]3(C)[C@H](CC[C@@H]4[C@@]5(C)CC=C(C6=CC[C@@](COc7ncccc7C#N)(C(=O)O)CC6)C(C)(C)[C@@H]5CC[C@]43C)[C@@H]12` has a Cmax of 525 ng/mL (human; oral, 100 mg, single dose, fed, tablet).

Some of these lines once more:
`CC[C@@]1(O)C(=O)OCc2c1cc1n(c2=O)Cc2cc3c(CN(C)C)c(O)ccc3nc2-1` gave a Cmax of 6.64 ng/mL (human; oral, 2.5 mg, multiple doses, patients).
